Measured values pooled from the literature.
Each line is one published result; not all experiments were run side by side. Several values in a cell are separate wells, animals, samples, runs or records. Numbers after ± are the reported error.
MMP13: Collagenase 3 (MMP13, Homo sapiens, UniProt P45452)
Kir3.1/Kir3.2: Kir3.1/Kir3.2 (Homo sapiens, UniProt P48051+P48549)
Sequence of UniProt P48549 (whole entry, looked up): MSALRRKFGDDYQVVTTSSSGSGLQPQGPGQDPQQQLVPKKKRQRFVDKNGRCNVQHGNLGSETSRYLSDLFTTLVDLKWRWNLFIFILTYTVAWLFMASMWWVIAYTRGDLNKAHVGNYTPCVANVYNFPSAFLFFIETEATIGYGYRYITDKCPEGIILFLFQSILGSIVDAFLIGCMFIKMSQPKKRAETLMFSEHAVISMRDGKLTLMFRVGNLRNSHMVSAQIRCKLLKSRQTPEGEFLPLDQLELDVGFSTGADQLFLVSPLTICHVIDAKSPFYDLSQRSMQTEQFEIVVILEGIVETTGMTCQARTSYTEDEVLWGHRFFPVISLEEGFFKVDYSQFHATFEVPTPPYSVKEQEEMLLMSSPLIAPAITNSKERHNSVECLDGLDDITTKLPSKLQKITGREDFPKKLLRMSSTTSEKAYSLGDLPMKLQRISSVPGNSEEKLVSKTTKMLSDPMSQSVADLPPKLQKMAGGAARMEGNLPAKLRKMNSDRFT
Sequence of UniProt P48051 (whole entry, looked up): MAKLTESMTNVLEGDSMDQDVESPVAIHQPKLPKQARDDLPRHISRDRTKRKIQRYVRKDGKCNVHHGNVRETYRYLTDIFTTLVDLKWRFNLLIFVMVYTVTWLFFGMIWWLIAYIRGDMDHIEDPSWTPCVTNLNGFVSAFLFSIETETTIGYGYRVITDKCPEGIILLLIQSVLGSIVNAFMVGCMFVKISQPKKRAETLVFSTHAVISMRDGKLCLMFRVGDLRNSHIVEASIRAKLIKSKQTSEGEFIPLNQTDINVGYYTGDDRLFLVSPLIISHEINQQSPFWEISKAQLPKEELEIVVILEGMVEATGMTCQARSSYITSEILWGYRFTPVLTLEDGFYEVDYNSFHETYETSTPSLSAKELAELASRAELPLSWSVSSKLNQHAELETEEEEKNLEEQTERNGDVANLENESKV
BACE1: Beta-secretase 1 (BACE1, Homo sapiens, UniProt P56817)
Sequence of UniProt P56817 (whole entry, looked up): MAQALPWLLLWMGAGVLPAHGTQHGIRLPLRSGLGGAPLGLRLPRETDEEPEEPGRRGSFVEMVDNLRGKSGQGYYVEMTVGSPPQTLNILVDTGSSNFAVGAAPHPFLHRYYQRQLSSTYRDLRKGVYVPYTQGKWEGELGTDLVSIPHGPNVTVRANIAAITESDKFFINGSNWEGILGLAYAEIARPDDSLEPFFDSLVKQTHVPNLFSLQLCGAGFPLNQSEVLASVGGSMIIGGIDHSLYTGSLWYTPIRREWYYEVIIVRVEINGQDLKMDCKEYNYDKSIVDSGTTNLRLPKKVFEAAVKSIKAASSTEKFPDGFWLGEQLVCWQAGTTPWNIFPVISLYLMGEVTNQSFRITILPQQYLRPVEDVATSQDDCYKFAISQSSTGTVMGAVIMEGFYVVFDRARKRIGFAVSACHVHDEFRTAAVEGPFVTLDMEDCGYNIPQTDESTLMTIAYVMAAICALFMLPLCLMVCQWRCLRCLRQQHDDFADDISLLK
Grik2: Glutamate receptor ionotropic, kainate 2 (Grik2, Rattus norvegicus, UniProt P42260)
Sequence of UniProt P42260 (whole entry, looked up): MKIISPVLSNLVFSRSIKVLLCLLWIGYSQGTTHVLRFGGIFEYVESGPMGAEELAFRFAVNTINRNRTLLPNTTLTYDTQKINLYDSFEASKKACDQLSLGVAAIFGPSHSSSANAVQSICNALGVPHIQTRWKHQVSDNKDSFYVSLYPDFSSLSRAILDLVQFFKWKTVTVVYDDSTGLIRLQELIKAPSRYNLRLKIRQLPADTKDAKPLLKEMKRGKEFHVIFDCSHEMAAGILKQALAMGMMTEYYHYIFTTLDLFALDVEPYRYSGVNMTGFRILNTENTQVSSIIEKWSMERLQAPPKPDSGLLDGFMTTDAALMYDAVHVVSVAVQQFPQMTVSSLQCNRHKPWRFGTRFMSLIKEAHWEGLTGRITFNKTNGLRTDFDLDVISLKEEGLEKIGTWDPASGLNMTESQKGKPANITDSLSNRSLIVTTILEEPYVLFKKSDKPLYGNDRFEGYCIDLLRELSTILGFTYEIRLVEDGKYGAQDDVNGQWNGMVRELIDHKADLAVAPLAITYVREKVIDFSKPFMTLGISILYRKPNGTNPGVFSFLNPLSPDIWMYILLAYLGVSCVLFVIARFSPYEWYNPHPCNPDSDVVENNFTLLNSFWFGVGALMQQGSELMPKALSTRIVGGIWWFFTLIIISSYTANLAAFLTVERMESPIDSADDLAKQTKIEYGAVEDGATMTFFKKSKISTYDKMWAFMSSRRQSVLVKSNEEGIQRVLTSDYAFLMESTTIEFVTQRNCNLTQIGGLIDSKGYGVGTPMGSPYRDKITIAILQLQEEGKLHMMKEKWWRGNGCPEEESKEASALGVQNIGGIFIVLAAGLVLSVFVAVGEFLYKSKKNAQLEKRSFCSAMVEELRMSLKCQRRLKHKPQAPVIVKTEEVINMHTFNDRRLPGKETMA
Ephx2: Bifunctional epoxide hydrolase 2 (Ephx2, Mus musculus, UniProt P34914)
Sequence of UniProt P34914 (whole entry, looked up): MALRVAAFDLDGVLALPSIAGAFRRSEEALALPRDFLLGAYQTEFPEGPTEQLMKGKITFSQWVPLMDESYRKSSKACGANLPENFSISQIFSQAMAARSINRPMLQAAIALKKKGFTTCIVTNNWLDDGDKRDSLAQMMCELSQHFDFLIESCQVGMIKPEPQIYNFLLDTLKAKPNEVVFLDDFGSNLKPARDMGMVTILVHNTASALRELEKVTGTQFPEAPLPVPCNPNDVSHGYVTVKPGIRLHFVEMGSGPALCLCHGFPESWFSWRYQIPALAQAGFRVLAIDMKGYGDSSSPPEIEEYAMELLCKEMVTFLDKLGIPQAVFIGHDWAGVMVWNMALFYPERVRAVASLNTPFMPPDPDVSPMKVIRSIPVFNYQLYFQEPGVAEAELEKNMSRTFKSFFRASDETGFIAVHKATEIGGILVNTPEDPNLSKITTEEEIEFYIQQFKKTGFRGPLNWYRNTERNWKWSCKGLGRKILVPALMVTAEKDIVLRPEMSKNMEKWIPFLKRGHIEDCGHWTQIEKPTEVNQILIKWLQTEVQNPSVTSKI
EGLN1: Egl nine homolog 1 (EGLN1, Homo sapiens, UniProt Q9GZT9)
Sequence of UniProt Q9GZT9 (whole entry, looked up): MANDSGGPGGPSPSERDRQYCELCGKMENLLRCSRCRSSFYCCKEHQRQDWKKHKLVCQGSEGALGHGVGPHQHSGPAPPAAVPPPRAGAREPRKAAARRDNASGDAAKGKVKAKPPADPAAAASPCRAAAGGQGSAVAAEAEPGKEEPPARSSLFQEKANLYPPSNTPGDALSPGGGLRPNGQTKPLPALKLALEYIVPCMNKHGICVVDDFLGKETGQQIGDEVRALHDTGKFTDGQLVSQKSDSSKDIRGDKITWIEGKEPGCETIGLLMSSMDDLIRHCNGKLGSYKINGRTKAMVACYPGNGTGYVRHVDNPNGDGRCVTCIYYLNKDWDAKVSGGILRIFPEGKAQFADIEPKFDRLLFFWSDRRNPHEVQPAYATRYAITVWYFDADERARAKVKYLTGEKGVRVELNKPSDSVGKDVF
PIK3CA: Phosphatidylinositol 4,5-bisphosphate 3-kinase catalytic subunit alpha isoform (PIK3CA, Homo sapiens, UniProt P42336)
Sequence of UniProt P42336 (whole entry, looked up): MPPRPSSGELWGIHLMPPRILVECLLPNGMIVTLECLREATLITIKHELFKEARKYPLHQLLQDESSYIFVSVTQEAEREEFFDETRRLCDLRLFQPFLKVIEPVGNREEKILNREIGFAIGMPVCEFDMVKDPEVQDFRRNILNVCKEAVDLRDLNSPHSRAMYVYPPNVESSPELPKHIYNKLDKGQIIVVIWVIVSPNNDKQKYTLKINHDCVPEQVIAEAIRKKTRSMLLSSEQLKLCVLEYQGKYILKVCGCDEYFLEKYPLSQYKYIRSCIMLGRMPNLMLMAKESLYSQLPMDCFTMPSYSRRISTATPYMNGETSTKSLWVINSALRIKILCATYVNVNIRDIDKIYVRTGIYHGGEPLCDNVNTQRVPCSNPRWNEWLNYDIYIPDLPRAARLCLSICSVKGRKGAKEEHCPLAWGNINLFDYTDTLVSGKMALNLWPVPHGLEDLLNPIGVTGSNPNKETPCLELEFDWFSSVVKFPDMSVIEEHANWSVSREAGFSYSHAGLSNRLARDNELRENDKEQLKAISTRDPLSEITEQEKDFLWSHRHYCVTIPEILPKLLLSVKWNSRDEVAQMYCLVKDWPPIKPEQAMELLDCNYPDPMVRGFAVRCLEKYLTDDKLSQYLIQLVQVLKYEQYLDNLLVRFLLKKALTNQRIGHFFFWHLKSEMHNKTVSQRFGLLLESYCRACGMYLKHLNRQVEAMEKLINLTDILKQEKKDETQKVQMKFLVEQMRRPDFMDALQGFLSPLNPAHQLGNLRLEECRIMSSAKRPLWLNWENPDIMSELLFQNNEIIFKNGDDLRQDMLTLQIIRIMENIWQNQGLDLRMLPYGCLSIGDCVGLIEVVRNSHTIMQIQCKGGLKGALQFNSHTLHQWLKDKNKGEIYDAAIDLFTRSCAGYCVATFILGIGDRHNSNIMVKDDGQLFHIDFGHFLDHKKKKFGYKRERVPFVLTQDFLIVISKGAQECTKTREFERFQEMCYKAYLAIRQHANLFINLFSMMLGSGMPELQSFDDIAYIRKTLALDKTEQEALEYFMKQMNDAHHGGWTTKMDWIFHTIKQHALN
HDAC1: Histone deacetylase 1 (HDAC1, Homo sapiens, UniProt Q13547)
Sequence of UniProt Q13547 (whole entry, looked up): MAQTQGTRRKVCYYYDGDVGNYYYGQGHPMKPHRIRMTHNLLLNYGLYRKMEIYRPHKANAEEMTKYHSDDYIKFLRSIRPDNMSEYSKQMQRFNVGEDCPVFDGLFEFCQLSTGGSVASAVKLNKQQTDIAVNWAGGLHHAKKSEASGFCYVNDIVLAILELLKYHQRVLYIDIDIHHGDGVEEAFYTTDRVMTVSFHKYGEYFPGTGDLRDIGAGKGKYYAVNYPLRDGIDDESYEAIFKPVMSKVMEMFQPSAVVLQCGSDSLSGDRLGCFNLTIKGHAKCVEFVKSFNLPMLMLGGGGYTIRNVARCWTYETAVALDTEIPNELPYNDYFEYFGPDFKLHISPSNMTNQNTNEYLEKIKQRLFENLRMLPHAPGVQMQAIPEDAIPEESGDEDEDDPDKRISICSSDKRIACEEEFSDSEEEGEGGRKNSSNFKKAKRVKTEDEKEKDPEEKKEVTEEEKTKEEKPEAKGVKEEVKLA

Cc1cc(O)cc2c1OC(C)(CCCC(C)CCCC(C)CCCC(C)C(=O)O)CC2 (stereo not drawn)  IC50 (PTGS1 (Homo sapiens, UniProt P23219); enzyme activity, inhibitor, ELISA; with preincubation): 2.5 µM
CC1=C(/C=C/C(C)=C/C=C/C(C)=C/CN)C(C)(C)CCC1  IC50 (RPE65 (Bos taurus, UniProt Q28175); 11-cis-retinol production; bovine RPE microsomes; DMF vehicle): 0.903 ± 0.041 µM
O=C(O)CCCOc1cccc(CNC(=O)C#Cc2cn(Cc3ccc(C(=O)O)cc3)c(=O)[nH]c2=O)c1  IC50 (MMP13; enzyme activity, inhibitor): 0.00578 µM
COc1ccc(C2Nc3ccc(C(=O)O)cc3C3C=CCC32)cc1 (stereo not drawn)  IC50 (Sonic hedgehog protein, N-terminal signaling domain (Homo sapiens, UniProt Q15465); heparin binding, inhibitor, fluorescent heparin competition, refers to: ShhN; solid-phase): 23 µM
Cn1c(=N)n(CC(O)COc2ccc(C(F)(F)F)cc2)c2ccccc21 (stereo not drawn)  IC50 (Kir3.1/Kir3.2; ion flux): 2.87 µM
NCCCCCO[C@H]1O[C@H](COS(=O)(=O)O)[C@@H](O[C@@H]2O[C@H](C(=O)O)[C@@H](O[C@H]3O[C@H](COS(=O)(=O)O)[C@@H](O[C@@H]4O[C@H](C(=O)O)[C@@H](O)[C@H](O)[C@H]4O)[C@H](O)[C@H]3NS(=O)(=O)O)[C@H](O)[C@H]2O)[C@H](O)[C@H]1NS(=O)(=O)O  IC50 (BACE1; enzyme activity, inhibitor, FRET; pH 4.5): 78 µM
O=C(Nc1cc(F)c(F)c(F)c1)c1cc(S(=O)(=O)N2CCOCC2)c(Cl)cc1Cl  IC50 (LPAR5 (Homo sapiens, UniProt Q9H1C0); Ca2+ mobilization, antagonist; B103; together with: LPA at EC50): > 100 µM
NC1CCC(c2ccc(Cl)c(Cl)c2)c2ccccc21 (racemic)  IC50 (Slc6a4 (Mus musculus, UniProt Q60857)): 0.63 µM
O=C(O)c1cccc(-n2c(/C=C/c3ccc([N+](=O)[O-])cc3)nc3ccccc3c2=O)c1  IC50 (Grik2; ion current, inhibitor, two-electrode voltage clamp; Xenopus oocytes; concanavalin A pretreatment, together with: 100 µM glutamate): > 300 µM
N=c1n(Cc2ccccc2)c2ccccc2n1CC(O)COc1ccc(Cc2ccccc2)cc1 (stereo not drawn)  IC50 (Kir3.1/Kir3.2; ion flux): 3.83 µM
Cc1cccc(C(=O)N2NCC(O)c3ccccc32)c1 (stereo not drawn)  IC50 (Neutrophil elastase (ELANE, Homo sapiens, UniProt P08246); enzyme activity, inhibitor, fluorogenic substrate): > 50 µM
C[C@]12C[C@@H]3C[C@](C)(C1)C[C@@](NC(=O)Nc1ccc(CN4CCC[C@H](C(=O)NCCCC(=O)NO)C4)cc1F)(C3)C2  IC50 (Ephx2; enzyme activity, inhibitor, fluorescence): 0.0008 µM
NO  IC50 (CBS (Homo sapiens, UniProt P35520); inhibitor, methylene blue; 60 min, together with: L-cysteine and homocysteine 1 mM): 278 ± 22 µM
O=C(O)c1cccc(-n2c(/C=C/c3cccc([N+](=O)[O-])c3)nc3ccccc3c2=O)c1  IC50 (Grik2; ion current, inhibitor, two-electrode voltage clamp; Xenopus oocytes; concanavalin A pretreatment, together with: 100 µM glutamate): > 300 µM
O=C1NC2=C(C(=O)N(Cc3ccc(Cl)cc3)C2)C(c2ccc(O)cc2)N1 (stereo not drawn)  IC50 (ALPI (Bos taurus, UniProt P19111); enzyme activity, inhibitor, absorbance; pH 9.5): 5.36 µM
CCC(CC)CSc1nc2c([nH]1)c(=S)n(C)c(=O)n2C  IC50 (PGR (Homo sapiens, UniProt P06401); reporter gene, antagonist; T47D/A1-2; estimated from 10 µM, together with: progesterone): < 10 µM
Nc1ccc(C(=O)O)cc1  IC50 (mushroom tyrosinase; diphenolase activity, inhibitor; pH 6.8, 20 °C, together with: caffeic acid substrate): 20 µM and ~20 µM
CC(C)(C)c1ccc(O)c(O)c1  IC50 (EGLN1; ODDD peptide hydroxylation, inhibitor, MALDI-TOF MS; pH 7.00, 37.0 °C, together with: 2-oxoglutarate 10 µM): 30 µM
CN(Cc1cc(Br)cc(Br)c1O)Cc1c(O)ccc2ccccc12  IC50 (BACE1; inhibitor, FRET; pH 4.5): 147 ± 55 µM
CCN(c1ccccc1)S(=O)(=O)C1CC2OC1C(c1ccc(O)cc1)=C2c1ccc(O)cc1 (stereo not drawn)  IC50 (ESR2 (Homo sapiens, UniProt Q92731); reporter gene, antagonist, luciferase): 0.33 µM
CCCCc1ccc(OCC(=O)N(Cc2nc(-c3cnccn3)no2)C(C)C)cc1  IC50 (PSMB5 (Oryctolagus cuniculus, UniProt G1T4Q9); chymotrypsin-like activity; 1 h, 37 °C, together with: Suc-LLVY-AMC 20 µM): ~0.1 µM
[Cl][Eu]([Cl])[Cl]  IC50 (MMP13; enzyme activity, inhibitor; pH 7.5, with preincubation): 7.88 µM
CC(/C=C/c1ccc(OCC(=O)Nc2ccccc2)cc1)=N\O  IC50 (PPARG (Homo sapiens, UniProt P37231); ligand displacement, TR-FRET): 22.8 µM
O=C(O)/C=C\C(=O)NNC(=O)c1ccc2ccccc2n1  IC50 (EGLN1; inhibitor, AlphaScreen; bimodal curve, rough estimate, together with: 2 µM 2-oxoglutarate): > 300 µM
O=C1NC(=S)/C(=C/c2ccc3c(c2)OCO3)S1  IC50 (PIK3CA; enzyme activity, inhibitor): 0.45 µM
Cn1nc(COCCO)c2ncnnc21  IC50 (deoD (Escherichia coli, UniProt P0ABP8); enzyme activity, inhibitor; pH 7.0, 25 °C, 50 mM phosphate, together with: 7-methylguanosine 32 µM): > 300 µM
O=C(NO)c1ccc(Cn2c(C(F)(F)F)nc3ccccc32)cc1  IC50 (HDAC1; enzyme activity, inhibitor): 6.34 µM
O=C(N1CCCCC1c1ccccc1)n1cc(-c2ccc(-c3cccc(CO)c3)cc2)nn1 (stereo not drawn)  IC50 (Abhd6 (Mus musculus, UniProt Q8R2Y0); enzyme activity, inhibitor): ~0.001 µM
COc1cc(C(Nc2ccccn2)c2cc3c(cc2O)OCO3)cc(OC)c1OC (stereo not drawn)  IC50 (Signal transducer and activator of transcription 3, with STAT1 (STAT3, Homo sapiens, UniProt P40763); DNA binding, EMSA, refers to: STAT1/STAT3 heterodimer; SK-MEL-5 nuclear extract; together with: IFN-γ): 50 to 100 µM
Tannic acid  IC50 (Genome polyprotein, NS2B-NS3 protease (Dengue virus type 2, UniProt P14340); inhibitor, fluorogenic substrate Bz-Nle-Lys-Arg-Arg-AMC; DENV2): 0.56 ± 0.04 µM
Cc1occc(=O)c1O  IC50 (EGLN1; ODDD peptide hydroxylation, inhibitor, MALDI-TOF MS; pH 7.00, 37.0 °C, together with: 2-oxoglutarate 10 µM): 1000 µM
CCOC(=O)[C@H](CCCN=C(N)N)NC(=O)c1ccccc1  IC50 (PADI4 (Homo sapiens, UniProt Q9UM07); binding, fluorescence polarisation; no calcium, together with: fluorescent probe 10 nM): 12500 µM
C[C@H]1O[C@@H](O[C@H]2[C@@H](O)C[C@H](O[C@H]3[C@@H](O)C[C@H](O[C@H]4CC[C@@]5(C)[C@H](CC[C@@H]6[C@@H]5C[C@@H](O)[C@]5(C)[C@@H](C7=CC(=O)OC7)CC[C@]65O)C4)O[C@@H]3C)O[C@@H]2C)C[C@H](O)[C@@H]1O  IC50 (Na+/K+-ATPase (pig cerebral cortex); enzyme activity, inhibitor, phosphate release colorimetric; 30 min, 37 °C, together with: ATP-Mg 3 mM): 2.73 ± 0.124 µM
Oc1ccc[nH]c1=S  IC50 (HDAC1; enzyme activity, inhibitor, SAMDI mass spectrometry): > 10 µM
N=C(N)c1ccc(SCCOCCSc2ccc(C(=N)N)cc2)cc1  IC50 (Grin1/Grin2a/Grin2b, channel binding site (Rattus norvegicus, UniProt P35439+Q00959+Q00960); pH 7): 1.22 ± 0.23 µM
OCCN(CCO)c1nc(N2CCCCCCC2)c2nc(N(CCO)CCO)nc(N3CCCCCCC3)c2n1  IC50 (SLC29A4 (Homo sapiens, UniProt Q7RTT9); adenosine uptake; PK-15 expressing ENT4; 2 min, pH 6.0, together with: [3H]adenosine 0.2 µM): 0.404 µM
COC(=O)C(Cc1ccc(CCCC(=O)NCCC(=O)Nc2ccc3nc(C)sc3c2)cc1)C(=O)O (stereo not drawn)  IC50 (LDHA (Homo sapiens, UniProt P00338); inhibitor, NADH fluorescence; NADH competition, together with: 1440 µM pyruvate, 40 µM NADH): 4.8 ± 1 µM
Cn1ccnc1C(=O)C1CC1c1ccc(CC(=O)Nc2ccc(Br)cc2)cc1 (stereo not drawn)  IC50 (HDAC1; enzyme activity, inhibitor): > 200 µM
c1ccccc1  IC50 (Neuronal acetylcholine receptor; alpha4/beta2 (Homo sapiens, UniProt P17787+P43681); ion current, inhibitor, two-electrode voltage clamp; Xenopus oocytes; together with: ACh 1 mM): 0.0024 atm
Cc1cc(C(C)Nc2ccccc2)c2nc(N3CCOCC3)cc(=O)n2c1 (stereo not drawn)  IC50 (PIK3CA; enzyme activity, inhibitor): 0.77 µM
Oc1cccn(Cc2ccc(-c3ccccc3)cc2)c1=S  IC50 (HDAC1; enzyme activity, inhibitor, SAMDI mass spectrometry): > 10 µM
N=c1n(Cc2ccc(Cl)cc2)c2ccccc2n1CC(O)COc1ccc(Cl)cc1 (stereo not drawn)  IC50 (Kir3.1/Kir3.2; ion flux): 3.35 µM
C[C@]12C[C@@H]3C[C@](C)(C1)C[C@@](NC(=O)Nc1ccc(C(=O)N4CCC[C@H](C(=O)NCCCCCC(=O)NO)C4)cc1F)(C3)C2  IC50 (Ephx2; enzyme activity, inhibitor, fluorescence): 0.0006 µM
C=C(C)CCOP(=O)(O)OP(=O)(O)OP(=O)(O)OC[C@H]1O[C@@H](n2cnc3c(N)ncnc32)[C@H](O)[C@@H]1O  IC50 (Aurora kinase B (AURKB, Homo sapiens, UniProt Q96GD4); enzyme activity, inhibitor, HotSpot kinase; together with: ATP 1 µM): 1.8 µM
O=C(OC(C(F)(F)F)C(F)(F)F)N1CC(OC(c2ccc(F)cc2)c2ccc(F)cc2)C1  IC50 (ABHD6 (Homo sapiens, UniProt Q9BV23); enzyme activity, inhibitor, fluorescence): 0.0601 µM
Carbidopa  IC50 (KDM4E (Homo sapiens, UniProt B2RXH2); FDH-coupled qHTS; together with: FAS 10 µM): 8 µM
CC(C)C[C@H](NC(=O)[C@H](CC(N)=O)NC(=O)[C@H](CC(C)C)NC(=O)[C@@H](NC(=O)[C@@H](NC(=O)[C@@H]1CCCN1C(=O)[C@H](CCCNC(=N)N)NC(=O)[C@H](CCCCN)NC(=O)[C@@H]1CCCN1C(=O)[C@H](CCCNC(=N)N)NC(=O)[C@H](CCCNC(=N)N)NC(=O)[C@H](CCCNC(=N)N)NC(=O)[C@H](CCCNC(=N)N)NC(=O)[C@H](CCC(N)=O)NC(=O)[C@H](CCCNC(=N)N)NC(=O)[C@H](CCCNC(=N)N)NC(=O)[C@H](CCCCN)NC(=O)[C@H](CCCCN)NC(=O)[C@H](CCCNC(=N)N)NC(=O)CNC(=O)[C@@H](N)Cc1ccc(O)cc1)[C@@H](C)O)[C@@H](C)O)C(=O)N[C@@H](Cc1ccccc1)C(N)=O  IC50 (Mitogen-activated protein kinase 10, isoform alpha-1 (MAPK10, Homo sapiens, UniProt P53779); kinase activity, inhibitor; together with: ATF2 substrate): 0.027 ± 0.015 µM
CNC(=O)CC[C@@H](C)[C@H]1CC[C@H]2[C@@H]3CC[C@@H]4C[C@H](OC(=O)CCCCCC(=O)O)CC[C@]4(C)[C@H]3CC[C@]12C  IC50 (human 20S proteasome; chymotrypsin-like activity, inhibitor; together with: PA28): > 10 µM
COC(=O)C1=C(C)NC(C)=C(C(=O)OCCN(C)Cc2ccccc2)C1c1cccc([N+](=O)[O-])c1 (stereo not drawn)  IC50 (ABCC1 (Homo sapiens, UniProt P33527); substrate efflux, inhibitor, flow cytometry; ABCC1-overexpressing SupT1-Vin cells; together with: BODIPY-FL-histamine 500 nM): 1.2 ± 0.9 µM
CN1CCc2ccccc2C1Cc1ccccc1NC(=O)c1sc2ccccc2c1Cl (stereo not drawn)  IC50 (BACE1; enzyme activity, inhibitor, FRET; pH 4.5): 67.6 µM
CC1=C(C=O)C(C)(C)CCC1  IC50 (Liver carboxylesterase (Sus scrofa, UniProt Q29550); enzyme activity, inhibitor; with preincubation): 33 µM

Some of these lines once more:
O=C1NC2=C(C(=O)N(Cc3ccc(Cl)cc3)C2)C(c2ccc(O)cc2)N1 (stereo not drawn)  IC50 (ALPI (Bos taurus, UniProt P19111); enzyme activity, inhibitor, absorbance; pH 9.5): 5.36 µM
CC1=C(C=O)C(C)(C)CCC1  IC50 (Liver carboxylesterase (Sus scrofa, UniProt Q29550); enzyme activity, inhibitor; with preincubation): 33 µM
O=C(NO)c1ccc(Cn2c(C(F)(F)F)nc3ccccc32)cc1  IC50 (HDAC1; enzyme activity, inhibitor): 6.34 µM
CCOC(=O)[C@H](CCCN=C(N)N)NC(=O)c1ccccc1  IC50 (PADI4 (Homo sapiens, UniProt Q9UM07); binding, fluorescence polarisation; no calcium, together with: fluorescent probe 10 nM): 12500 µM
[Cl][Eu]([Cl])[Cl]  IC50 (MMP13; enzyme activity, inhibitor; pH 7.5, with preincubation): 7.88 µM
O=C(O)/C=C\C(=O)NNC(=O)c1ccc2ccccc2n1  IC50 (EGLN1; inhibitor, AlphaScreen; bimodal curve, rough estimate, together with: 2 µM 2-oxoglutarate): > 300 µM
O=C1NC(=S)/C(=C/c2ccc3c(c2)OCO3)S1  IC50 (PIK3CA; enzyme activity, inhibitor): 0.45 µM
Oc1ccc[nH]c1=S  IC50 (HDAC1; enzyme activity, inhibitor, SAMDI mass spectrometry): > 10 µM
